Assay results pooled from the literature.
Numbered parts are unrelated; each lists some results of a single study. Positions count from the first letter of the parent shown.

Series 1
Target: ABI1, truncated, D143A, DHFR fusion (Arabidopsis thaliana)
Method: DHFR PCA, deep sequencing
Medium: yeast
Setting: methotrexate growth selection, single substitutions
Together with: (+)-ABA 0.39 µM
Baseline: wild-type fitted maximum
Reading: higher = stronger binding
Quantity: relative binding score
Starting sequence: PYL1, truncated, DHFR fusion (Arabidopsis thaliana); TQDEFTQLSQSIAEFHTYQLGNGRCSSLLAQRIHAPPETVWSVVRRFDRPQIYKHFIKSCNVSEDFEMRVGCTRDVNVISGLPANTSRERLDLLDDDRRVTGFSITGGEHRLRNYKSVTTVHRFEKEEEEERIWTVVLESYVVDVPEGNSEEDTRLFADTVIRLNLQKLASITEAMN; partner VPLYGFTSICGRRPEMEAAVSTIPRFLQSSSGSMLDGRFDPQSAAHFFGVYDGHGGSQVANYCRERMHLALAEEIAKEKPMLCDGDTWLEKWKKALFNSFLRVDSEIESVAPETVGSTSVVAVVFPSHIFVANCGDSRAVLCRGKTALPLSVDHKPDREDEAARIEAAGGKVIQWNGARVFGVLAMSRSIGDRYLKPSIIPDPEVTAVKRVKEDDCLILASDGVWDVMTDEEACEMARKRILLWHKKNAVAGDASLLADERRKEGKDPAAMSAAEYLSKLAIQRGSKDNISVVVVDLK
V142R: 3.79%
I79W: 27.8%
R32P: 10.6%
P36E: 24.6%
Q167S: 41.4%
C72P: -7.42%
G81W: -8.05%
C25E: 1.84%
G107R: 2.73%
F103K: -9.22%

Series 2
Target: Histone acetyltransferase KAT6A, both winged helices, GST fusion (KAT6A, Homo sapiens, UniProt Q92794, residues 1-181)
Method: protein binding microarray
Form: double-stranded DNA, one strand shown
Medium: in vitro
Concentration: not given
Setting: 8-mer, flanks averaged, mean of 2 arrays, mostly near background
Baseline: not given
Reading: higher = stronger binding
Quantity: E-score
Residues (chain): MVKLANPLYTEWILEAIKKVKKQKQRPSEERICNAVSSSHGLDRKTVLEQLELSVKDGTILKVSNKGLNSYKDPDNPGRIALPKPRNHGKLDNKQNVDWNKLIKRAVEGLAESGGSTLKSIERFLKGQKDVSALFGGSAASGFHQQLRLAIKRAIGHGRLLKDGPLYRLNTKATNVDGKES
GGCCACAA: -0.0229
AATCAAGG: -0.0585
GGCCAGTA: -0.0996
ACTAATGC: 0.0348
ACACACCA: -0.156
GTCGGACA: 0.147
CATCGCGG: 0.281
CATGTTAA: -0.00691

Series 3
Target: CCNB1, cyclin fold, Cln2 fusion (human)
Method: yeast growth competition, sequencing
Medium: yeast
Setting: strong parent motif
Baseline: not given
Reading: higher = stronger binding
Quantity: normalised enrichment score
Starting sequence: E2F1 docking peptide (human); PPVKRRLDFETDH; partner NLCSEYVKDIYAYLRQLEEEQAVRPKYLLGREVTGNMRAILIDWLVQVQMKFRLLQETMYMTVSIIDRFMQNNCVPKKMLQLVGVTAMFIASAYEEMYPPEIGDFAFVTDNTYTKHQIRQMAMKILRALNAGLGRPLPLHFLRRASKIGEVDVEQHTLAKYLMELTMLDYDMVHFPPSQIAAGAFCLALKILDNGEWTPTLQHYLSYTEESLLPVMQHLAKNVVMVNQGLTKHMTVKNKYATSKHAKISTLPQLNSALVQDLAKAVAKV
PPVKRRLDFETPH [D12P]: 5.34
PPEKRRLDFETDH [V3E]: 1.14
PPVKRRLDFENDH [T11N]: 5.45
PDVKRRLDFETDH [P2D]: 5.13
PPDKRRLDFETDH [V3D]: 0.024
PPVKRRLGFETDH [D8G]: 1.93
PPVKRRMDFETDH [L7M]: 0.685
PPVKPRLDFETDH [R5P]: 0.125
PPVKRWLDFETDH [R6W]: 1.92
PPVKRRLDFETYH [D12Y]: 4.95
PPVKRRLDKETDH [F9K]: 0.704

Single results of other studies
PhoQ, residues 284 288 289 292 302 303 SMYGEC  fold induction (PhoP, residues 12 14 15 18 19 NQGLL (Escherichia coli, UniProt P23836); Sort-seq, refers to: YFP reporter; E. coli; PhoQ-PhoP variant library, together with: 10 µM Mg2+; baseline: high Mg2+ state, higher = stronger signaling): 3.53

Excerpt of the above (series 3):
PPEKRRLDFETDH [V3E]: 1.14
PPVKRRLDKETDH [F9K]: 0.704
